Results collected from several papers.
Compare with care: the assays were run in different laboratories.
Chain of UniProt Q9Y2K6 (whole entry, looked up): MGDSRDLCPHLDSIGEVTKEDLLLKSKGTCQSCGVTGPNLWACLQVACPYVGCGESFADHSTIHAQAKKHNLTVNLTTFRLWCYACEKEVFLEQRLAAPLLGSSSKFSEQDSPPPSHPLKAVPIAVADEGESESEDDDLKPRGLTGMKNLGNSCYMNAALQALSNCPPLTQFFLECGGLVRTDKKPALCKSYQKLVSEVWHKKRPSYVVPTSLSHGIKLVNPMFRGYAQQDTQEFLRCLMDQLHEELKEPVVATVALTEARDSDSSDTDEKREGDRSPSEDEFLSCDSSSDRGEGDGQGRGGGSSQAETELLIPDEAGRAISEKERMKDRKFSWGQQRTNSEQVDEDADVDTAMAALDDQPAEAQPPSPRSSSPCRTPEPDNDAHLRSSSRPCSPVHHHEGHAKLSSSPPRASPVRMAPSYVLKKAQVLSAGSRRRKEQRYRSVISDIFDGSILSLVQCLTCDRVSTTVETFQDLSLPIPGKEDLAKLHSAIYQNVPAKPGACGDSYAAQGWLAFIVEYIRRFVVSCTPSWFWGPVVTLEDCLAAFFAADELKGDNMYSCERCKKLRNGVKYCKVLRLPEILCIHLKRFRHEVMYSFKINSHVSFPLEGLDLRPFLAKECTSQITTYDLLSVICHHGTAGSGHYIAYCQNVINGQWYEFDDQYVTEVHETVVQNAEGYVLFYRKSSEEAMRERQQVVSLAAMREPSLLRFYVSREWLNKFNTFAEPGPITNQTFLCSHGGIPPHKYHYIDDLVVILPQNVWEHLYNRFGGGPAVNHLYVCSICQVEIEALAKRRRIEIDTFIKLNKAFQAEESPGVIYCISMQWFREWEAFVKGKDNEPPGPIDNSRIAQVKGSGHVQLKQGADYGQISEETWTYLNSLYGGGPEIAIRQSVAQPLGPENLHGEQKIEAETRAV
Chain of UniProt Q70CQ1 (whole entry, looked up): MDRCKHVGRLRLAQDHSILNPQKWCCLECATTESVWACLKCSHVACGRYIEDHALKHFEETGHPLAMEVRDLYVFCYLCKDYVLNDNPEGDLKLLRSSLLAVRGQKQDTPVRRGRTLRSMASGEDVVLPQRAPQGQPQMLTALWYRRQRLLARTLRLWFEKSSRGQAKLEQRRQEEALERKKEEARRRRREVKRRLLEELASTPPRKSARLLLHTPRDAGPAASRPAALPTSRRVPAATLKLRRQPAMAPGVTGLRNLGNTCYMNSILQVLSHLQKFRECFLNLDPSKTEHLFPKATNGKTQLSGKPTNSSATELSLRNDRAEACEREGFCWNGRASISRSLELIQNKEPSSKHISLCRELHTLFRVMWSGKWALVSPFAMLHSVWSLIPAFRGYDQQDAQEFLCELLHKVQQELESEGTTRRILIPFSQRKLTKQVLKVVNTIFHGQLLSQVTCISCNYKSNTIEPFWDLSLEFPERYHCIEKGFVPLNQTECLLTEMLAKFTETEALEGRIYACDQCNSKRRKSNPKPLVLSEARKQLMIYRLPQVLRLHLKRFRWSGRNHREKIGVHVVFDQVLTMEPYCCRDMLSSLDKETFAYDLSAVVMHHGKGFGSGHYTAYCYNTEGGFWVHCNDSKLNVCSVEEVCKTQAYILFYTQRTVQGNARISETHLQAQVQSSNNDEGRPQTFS
Chain of UniProt Q9Y616 (whole entry, looked up): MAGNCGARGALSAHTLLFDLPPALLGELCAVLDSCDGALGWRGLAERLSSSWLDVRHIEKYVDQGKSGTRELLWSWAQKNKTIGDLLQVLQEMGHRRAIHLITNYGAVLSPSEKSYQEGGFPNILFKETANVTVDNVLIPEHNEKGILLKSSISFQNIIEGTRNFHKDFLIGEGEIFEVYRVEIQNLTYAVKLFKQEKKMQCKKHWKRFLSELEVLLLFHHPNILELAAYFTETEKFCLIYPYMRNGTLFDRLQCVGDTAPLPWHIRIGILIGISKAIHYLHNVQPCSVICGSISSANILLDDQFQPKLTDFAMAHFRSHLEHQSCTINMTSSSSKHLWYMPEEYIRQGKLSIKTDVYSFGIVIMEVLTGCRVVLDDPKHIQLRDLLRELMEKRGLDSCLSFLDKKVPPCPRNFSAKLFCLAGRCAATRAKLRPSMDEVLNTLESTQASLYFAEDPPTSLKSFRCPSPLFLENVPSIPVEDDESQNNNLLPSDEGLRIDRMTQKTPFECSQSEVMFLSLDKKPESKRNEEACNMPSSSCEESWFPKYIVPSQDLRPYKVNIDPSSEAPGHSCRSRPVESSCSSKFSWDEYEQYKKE

| Compound | tested on | assay | test system | conditions | scale | measurement | value |
| --- | --- | --- | --- | --- | --- | --- | --- |
| N[C@@H](CCC(=O)O)C(=O)O |  | binding, equilibrium dialysis LC-MS |  | 5 µM, thermostabilized A2AR-BRIL construct | baseline: no-protein control, direction not given | z-scored log2 fold change | 0.212 |
| O=c1cc(-c2ccc(O)cc2)oc2cc(O)c([C@@H]3O[C@H](CO)[C@@H](O)[C@H](O)[C@H]3O)c(O)c12 | NLRP3 inflammasome (mouse) |  | mouse BMDM | 10 µM |  | inhibition | 9.89% |
| CC[C@@H]1[C@H](F)C(=O)N[C@@H]1COc1nccc2cc(C(N)=O)c(OC)cc12 | Interleukin-1 receptor-associated kinase 3 (IRAK3, Homo sapiens, UniProt Q9Y616) | ATP-site probe binding, inhibitor, ActivX ATP probe profiling | THP-1 cell lysate | probe site Lys1 |  | IC50 | 0.072 µM |
| OC(CCN1CCCCC1)(c1ccccc1)C1CC2C=CC1C2 (stereo not shown) |  | resting-state EEG | healthy elderly humans | oral, 4 mg, eyes open, LS mean |  | EEG power, beta, Pz-O1 | 6.1 µV² |
| O=C(c1ccc(/C=C/c2n[nH]c3ccccc23)cc1)N1CCNCC1 | iCell Cardiomyocytes (hiPSC-derived) | xCELLigence Cardio impedance |  | concentration not given, 2 h | baseline: control | beat rate | 77.9% |
| O=C(O)CNC(=O)Cc1ccc(O)cc1 |  | binding, equilibrium dialysis LC-MS |  | 5 µM, thermostabilized A2AR-BRIL construct | baseline: no-protein control, direction not given | z-scored log2 fold change | 1.41 |
| CN(C)C/C=C/C(=O)Nc1cc2c(Nc3ccc(F)c(Cl)c3)ncnc2cc1O[C@H]1CCOC1 | iCell Cardiomyocytes (hiPSC-derived) | xCELLigence Cardio impedance |  | concentration not given, 2 h | baseline: control | beat amplitude | 91.2% |
| CC(=O)N[C@@H](CCCN)C(=O)O |  | binding, equilibrium dialysis LC-MS |  | 5 µM, thermostabilized A2AR-BRIL construct | baseline: no-protein control, direction not given | z-scored log2 fold change | 0.332 |
| O=C(/C=C\n1cnc(-c2cc(C(F)(F)F)cc(C(F)(F)F)c2)n1)NNc1ccccn1 | human alphaherpesvirus 1 |  | primary human keratinocytes, K26 GFP |  | baseline: CC50 over IC50 | selectivity index | 3.95 |
| NC(=O)c1cnc2[nH]ccc2c1N[C@@H]1[C@@H]2CC3C[C@H]1C[C@@](O)(C3)C2 |  | CD8+ CD28+ naive T cells, flow cytometry | Caucasian humans, peripheral blood | 200 mg single dose | baseline: baseline | percent change | -1.2% |
| CSc1nc(C)c(CCC(=O)O)c(=O)[nH]1 | Ubiquitin carboxyl-terminal hydrolase 20, ZnF-UBD domain (USP20, Homo sapiens, UniProt Q9Y2K6) |  |  |  |  | Kd | 814 µM |
| COc1cnc2cccc(N3CCc4c(cc(Cn5ccnc5C)cc4-c4cn(C)nc4C(F)(F)F)C3=O)c2c1 | HCC1195 | cell growth |  | 120 h |  | EC50 | > 30 µM |
| Cc1ccc(F)c(NC(=O)Nc2ccc(-c3cccc4[nH]nc(N)c34)cc2)c1 | iCell Cardiomyocytes (hiPSC-derived) | CellTiter-Glo |  | concentration not given, 24 h | baseline: control | ATP level | 105% |
| O=C(O)CC1Oc2ccccc2NC1=O (stereo not shown) | Ubiquitin carboxyl-terminal hydrolase 49, ZnF-UBD domain (USP49, Homo sapiens, UniProt Q70CQ1) |  |  |  |  | Kd | > 1000 µM |
| C[C@H](Oc1ccc(Br)cc1-c1ccon1)C(=O)O |  | muscle velocity recovery cycles | human, tibialis anterior muscle | 200 mg once daily, multiple doses, multiple ascending dose | baseline: placebo | interstimulus interval at ESN | 0.446 ms |
| O=C(/C=C/C=C/C=C/C1CCCCC1)NC1=C[C@@](O)(/C=C/C=C/C=C/C(=O)NC2=C(O)CCC2=O)[C@@H]2O[C@@H]2C1=O | CAL-120 | cell growth, CellTiter-Glo |  | 78 h |  | GI50 | 26.4 µM |
| COc1ccc(-c2nc(N3CCOCC3)c3sc(CN(C)c4ncc(C(=O)NO)cn4)cc3n2)cn1 | human alphaherpesvirus 1 |  | primary human fibroblasts, K26 GFP | CC50 capped at 10.00 µM | baseline: CC50 over IC50 | selectivity index | < 0.15 |
| Oc1cccc(-c2nc(N3CCOCC3)c3oc4ncccc4c3n2)c1 | iCell Cardiomyocytes (hiPSC-derived) | cellular impedance |  | concentration not given, 24 h | baseline: control | cell index | 82.5% |
| COc1ccc(Cl)c(Nc2nc3ccccc3nc2NS(=O)(=O)c2cccc(NC(=O)C(C)(C)N)c2)c1 | NLRP3 inflammasome (mouse) |  | mouse BMDM | 10 µM |  | inhibition | 57.8% |
| CO[C@@H]1[C@H](N(C)C(=O)c2ccccc2)C[C@H]2O[C@]1(C)n1c3ccccc3c3c4c(c5c6ccccc6n2c5c31)C(=O)NC4 | iCell Cardiomyocytes (hiPSC-derived) | cellular impedance |  | concentration not given, 24 h | baseline: control | cell index | 83.3% |
| Cc1nc(N(C)C(=O)Cc2ccc(-c3ccccn3)cc2)sc1S(N)(=O)=O | human alphaherpesvirus 1 |  | primary human keratinocytes, K26 GFP |  | baseline: CC50 over IC50 | selectivity index | 396 |
| COc1cc(N2CCC(N3CCN(C)CC3)CC2)ccc1Nc1ncc(Cl)c(Nc2ccccc2S(=O)(=O)C(C)C)n1 | iCell Cardiomyocytes (hiPSC-derived) | CellTiter-Glo |  | concentration not given, 24 h | baseline: control | ATP level | 83.1% |

| Compound | tested on | assay | test system | conditions | scale | measurement | value |
| --- | --- | --- | --- | --- | --- | --- | --- |
| O=c1[nH]c(=O)c2[nH]c(=O)[nH]c2[nH]1 |  | binding, equilibrium dialysis LC-MS |  | 5 µM, thermostabilized A2AR-BRIL construct | baseline: no-protein control, direction not given | z-scored log2 fold change | 0.318 |
| O=C(NC1CCNCC1)c1[nH]ncc1NC(=O)c1c(Cl)cccc1Cl | iCell Cardiomyocytes (hiPSC-derived) | xCELLigence Cardio impedance |  | concentration not given, 2 h | baseline: control | beat rate | 94% |
| CC1(C)CNc2cc(NC(=O)c3cccnc3NCc3ccncc3)ccc21 | NLRP3 inflammasome (mouse) |  | mouse BMDM | 10 µM |  | inhibition | 38.8% |
| CC(Nc1nc(N2CCCC2)nc2ccccc12)c1ccccc1 (stereo not shown) | importin α/β1 | cMyc nuclear import, high content imaging | HeLa Kyoto reporter | 1.58 µM, 2 h |  | cells with nuclear reporter | 90.5% |
| C[C@@H](Oc1cc(-c2cnn(C3CCNCC3)c2)cnc1N)c1c(Cl)ccc(F)c1Cl | iCell Cardiomyocytes (hiPSC-derived) | cellular impedance |  | concentration not given, 24 h | baseline: control | cell index | 102% |
| NC(CCS)C(=O)O (racemic) |  | binding, equilibrium dialysis LC-MS |  | 5 µM, thermostabilized A2AR-BRIL construct | baseline: no-protein control, direction not given | z-scored log2 fold change | 0.377 |
| C=CC(=O)N1CCC[C@@H](n2nc(-c3ccc(Oc4ccccc4)cc3)c3c(N)ncnc32)C1 | NLRP3 inflammasome (mouse) |  | mouse BMDM | 10 µM |  | inhibition | -26.4% |
| Oc1ccccc1-c1n[nH]cc1-c1ccnc2ccccc12 | SSK2 (Candida albicans) | kinase binding, MIB/MS competition | Candida albicans lysate | 1 µM | baseline: DMSO | log2 fold change | 0.22 |
| C[C@@H](Oc1cc(-c2cnn(C3CCNCC3)c2)cnc1N)c1c(Cl)ccc(F)c1Cl | NLRP3 inflammasome (mouse) |  | mouse BMDM | 10 µM |  | inhibition | 89.6% |
| Nc1nc(-c2ccccc2)nc2[nH]nc(Nc3ccc(C(F)(F)F)cc3)c12 | coxsackievirus B3 |  | 31-1-93, NMRI mice, CVB3 chronic myocarditis | oral, 100 mg/kg twice daily, day 7, dosed days 3 to 10, score scale 0 to 7 | direction not given | clinical score | 0.9 |
| CC(C)(C)c1nc(-c2cccc(NS(=O)(=O)c3c(F)cccc3F)c2F)c(-c2ccnc(N)n2)s1 | NLRP3 inflammasome (mouse) |  | mouse BMDM | 10 µM |  | inhibition | 28.3% |
| OC[C@H]1O[C@H](O[C@H]2O[C@H](CO)[C@@H](O)[C@H](O)[C@H]2O)[C@H](O)[C@@H](O)[C@@H]1O |  | binding, equilibrium dialysis LC-MS |  | 5 µM, thermostabilized A2AR-BRIL construct | baseline: no-protein control, direction not given | z-scored log2 fold change | 0.0582 |
| CC(C)NCC(O)c1ccc(O)c(O)c1 (stereo not shown) |  |  | ventricular cardiomyocytes, C57BL/6 mouse | dose not given, 0.68 s |  | sarcomere length | 1.72 µm |
| Cc1cccc(C)c1N(CC(=O)Nc1ccc(-c2ncon2)cc1)C(=O)C1CCS(=O)(=O)CC1 | human alphaherpesvirus 1 |  | K26 GFP, 3D skin equivalent, submerged |  | baseline: CC50 over IC50 | selectivity index | > 37 |
| Cc1[nH]c(/C=C2\C(=O)Nc3ccccc32)c(C)c1CCC(=O)O | NLRP3 inflammasome (mouse) |  | mouse BMDM | 10 µM |  | inhibition | 5.16% |
| Cn1cc(-c2ccc(-c3cncc(Cl)c3N3CCC4(CCNC4=O)CC3)cc2)cn1 | COLO 205 | gene expression, microarray, item: SLC2A1 (GLUT1) mRNA |  | concentration not given, 6 h | baseline: untreated cells | log2 fold change | 3.07 |
| N#Cc1ccc2c(-c3ccncc3)c(-c3ccc(F)cc3)nn2c1 | orf19.3456 kinase Candida albicans | MIB/MS competition binding | Candida albicans cell lysate | 1 µM | baseline: DMSO, lower = stronger binding | log2 fold change | 0.00688 |
| O=C(O)CNC(=O)c1ccco1 |  | binding, equilibrium dialysis LC-MS |  | 5 µM, thermostabilized A2AR-BRIL construct | baseline: no-protein control, direction not given | z-scored log2 fold change | -0.985 |
| c1coc(-c2n[nH]cc2-c2ccnc3ccccc23)c1 | SSK2 (Candida albicans) | kinase binding, MIB/MS competition | Candida albicans lysate | 1 µM | baseline: DMSO | log2 fold change | -0.36 |
| O=C(O)/C=C(/CC(=O)O)C(=O)O |  | binding, equilibrium dialysis LC-MS |  | 5 µM, thermostabilized A2AR-BRIL construct | baseline: no-protein control, direction not given | z-scored log2 fold change | 0.0294 |
| Cc1ccc(Nc2nccc(N(C)c3ccc4c(C)n(C)nc4c3)n2)cc1S(N)(=O)=O | NLRP3 inflammasome (mouse) |  | mouse BMDM | 10 µM |  | inhibition | 16.5% |

For quick reference, copied from above:
| Compound | tested on | assay | test system | conditions | scale | measurement | value |
| --- | --- | --- | --- | --- | --- | --- | --- |
| CSc1nc(C)c(CCC(=O)O)c(=O)[nH]1 | Ubiquitin carboxyl-terminal hydrolase 20, ZnF-UBD domain (USP20, Homo sapiens, UniProt Q9Y2K6) |  |  |  |  | Kd | 814 µM |
| NC(=O)c1cnc2[nH]ccc2c1N[C@@H]1[C@@H]2CC3C[C@H]1C[C@@](O)(C3)C2 |  | CD8+ CD28+ naive T cells, flow cytometry | Caucasian humans, peripheral blood | 200 mg single dose | baseline: baseline | percent change | -1.2% |
| OC[C@H]1O[C@H](O[C@H]2O[C@H](CO)[C@@H](O)[C@H](O)[C@H]2O)[C@H](O)[C@@H](O)[C@@H]1O |  | binding, equilibrium dialysis LC-MS |  | 5 µM, thermostabilized A2AR-BRIL construct | baseline: no-protein control, direction not given | z-scored log2 fold change | 0.0582 |
| CO[C@@H]1[C@H](N(C)C(=O)c2ccccc2)C[C@H]2O[C@]1(C)n1c3ccccc3c3c4c(c5c6ccccc6n2c5c31)C(=O)NC4 | iCell Cardiomyocytes (hiPSC-derived) | cellular impedance |  | concentration not given, 24 h | baseline: control | cell index | 83.3% |
| N[C@@H](CCC(=O)O)C(=O)O |  | binding, equilibrium dialysis LC-MS |  | 5 µM, thermostabilized A2AR-BRIL construct | baseline: no-protein control, direction not given | z-scored log2 fold change | 0.212 |
| O=C(O)/C=C(/CC(=O)O)C(=O)O |  | binding, equilibrium dialysis LC-MS |  | 5 µM, thermostabilized A2AR-BRIL construct | baseline: no-protein control, direction not given | z-scored log2 fold change | 0.0294 |
